Results gathered from unrelated publications.
Lines come from different studies, so protocols differ. ± marks the error that the study gave. Bridge positions count the residues as written; N and C are the ends. Square brackets hold non-standard residues; d marks the D form. Where no end group is shown, it is not given here. Ends that are not written are not given here. [ ]: non-standard residue; d: D form.
Sequence of UniProt P00730 (whole entry, looked up): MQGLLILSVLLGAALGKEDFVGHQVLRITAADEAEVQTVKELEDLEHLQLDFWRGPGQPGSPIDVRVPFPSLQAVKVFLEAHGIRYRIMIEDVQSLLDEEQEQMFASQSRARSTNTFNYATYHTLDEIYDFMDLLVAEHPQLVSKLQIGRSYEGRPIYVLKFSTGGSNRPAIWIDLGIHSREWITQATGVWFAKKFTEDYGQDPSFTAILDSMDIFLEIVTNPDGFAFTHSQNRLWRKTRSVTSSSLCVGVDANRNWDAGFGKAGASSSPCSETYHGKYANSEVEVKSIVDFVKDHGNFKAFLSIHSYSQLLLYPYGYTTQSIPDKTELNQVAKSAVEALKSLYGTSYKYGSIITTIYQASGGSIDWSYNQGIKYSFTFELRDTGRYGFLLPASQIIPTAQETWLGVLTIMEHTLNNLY
Sequence of UniProt O15392 (whole entry, unmodified, looked up): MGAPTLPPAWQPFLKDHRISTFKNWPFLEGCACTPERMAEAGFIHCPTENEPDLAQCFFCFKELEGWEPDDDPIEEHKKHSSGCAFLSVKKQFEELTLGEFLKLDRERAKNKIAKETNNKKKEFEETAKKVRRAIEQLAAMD
Sequence of UniProt P43403 (whole entry, looked up): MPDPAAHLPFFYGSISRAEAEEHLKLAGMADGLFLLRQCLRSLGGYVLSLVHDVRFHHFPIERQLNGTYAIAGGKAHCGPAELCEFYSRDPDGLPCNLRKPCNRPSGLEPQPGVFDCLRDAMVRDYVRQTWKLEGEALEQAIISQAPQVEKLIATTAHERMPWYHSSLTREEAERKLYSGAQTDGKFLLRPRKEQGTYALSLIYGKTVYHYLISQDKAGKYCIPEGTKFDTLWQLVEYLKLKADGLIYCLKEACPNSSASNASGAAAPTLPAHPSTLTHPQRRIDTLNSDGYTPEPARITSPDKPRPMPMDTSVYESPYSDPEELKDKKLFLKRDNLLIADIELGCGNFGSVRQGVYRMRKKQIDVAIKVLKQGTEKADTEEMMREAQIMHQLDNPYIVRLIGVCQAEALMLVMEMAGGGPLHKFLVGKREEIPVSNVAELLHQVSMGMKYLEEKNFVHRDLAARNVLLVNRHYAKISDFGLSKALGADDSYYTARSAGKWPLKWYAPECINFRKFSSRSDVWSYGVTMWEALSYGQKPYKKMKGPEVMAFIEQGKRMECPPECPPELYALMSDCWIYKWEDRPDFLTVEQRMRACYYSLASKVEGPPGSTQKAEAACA
Sequence of UniProt P03018 (whole entry, looked up): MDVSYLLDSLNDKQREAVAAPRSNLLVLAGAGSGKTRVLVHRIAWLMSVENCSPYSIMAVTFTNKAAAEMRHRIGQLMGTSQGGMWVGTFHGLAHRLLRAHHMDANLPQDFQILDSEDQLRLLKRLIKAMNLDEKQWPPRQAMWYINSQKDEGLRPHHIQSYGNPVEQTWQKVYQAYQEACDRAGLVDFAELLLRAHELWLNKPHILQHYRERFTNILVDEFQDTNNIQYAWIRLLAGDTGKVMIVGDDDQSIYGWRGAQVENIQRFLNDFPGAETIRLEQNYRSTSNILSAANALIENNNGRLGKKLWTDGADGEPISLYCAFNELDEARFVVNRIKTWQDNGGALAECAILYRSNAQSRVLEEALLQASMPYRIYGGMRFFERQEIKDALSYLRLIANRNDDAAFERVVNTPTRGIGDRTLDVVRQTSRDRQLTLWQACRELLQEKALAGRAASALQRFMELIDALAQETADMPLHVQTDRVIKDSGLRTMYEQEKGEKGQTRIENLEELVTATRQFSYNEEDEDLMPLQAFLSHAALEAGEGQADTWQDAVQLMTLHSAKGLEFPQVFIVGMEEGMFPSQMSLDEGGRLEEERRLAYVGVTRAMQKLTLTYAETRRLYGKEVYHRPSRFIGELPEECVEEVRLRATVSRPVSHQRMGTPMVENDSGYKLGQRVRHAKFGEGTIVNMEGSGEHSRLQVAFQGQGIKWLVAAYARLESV

Molecule	target or system	assay	system	conditions	how to read	measurement	result
MFLDHILNKFWILHYAGSGSSG (SPAM peptide del2-3; peptide-RNA fusion)	CD274 ectodomain (Homo sapiens)	radioligand binding	peptide		reference: full-length SPAM, higher = more binding	relative binding	< 25%
VLRKTRHVNILLFM (BRAF 504-517)	BRAF kinase domain with dimer interface	fluorescence titration	peptide			Kd	5.75 ± 1.2 µM
AR[pT]KQTARKSTGGKA (histone H3 2-16 (UniProt P68431); pT3; pT = C[C@@H](OP(=O)(O)O)[C@H](N)C(=O)O; sequence looked up)	BIRC5 E51A (Homo sapiens, UniProt O15392)	ITC	peptide	pH 7.5, 25 °C, NaCl 100 mM		Kd	14.3 ± 2.2 µM
MIFLDHILNKFWILHYAGSGSSG (SPAM peptide del2; peptide-RNA fusion)	CD274 ectodomain (Homo sapiens)	radioligand binding	peptide		reference: full-length SPAM, higher = more binding	relative binding	< 25%
Ac-VLRKTRHVNILLFMG (BRAF 504-518; N-terminal acetyl)	BRAF kinase domain with dimer interface	fluorescence titration	peptide			Kd	0.8 ± 0.083 µM
GCVRLHESCLGQQVPCCDPAATCYCESRGDVVRKCYCR (AgRP variant)	ITGAV/ITGB3 whole, on cells (Homo sapiens)	competition with labeled echistatin, radioligand binding	designed binder, U87MG	3 h, room temperature, added: 125I-echistatin 0.06 nM		IC50	410 nM
AR[pT]KQTARKSTG (H3C1 1-12; pT3; pT = C[C@@H](OP(=O)(O)O)[C@H](N)C(=O)O)	BIRC5 1-142 (Homo sapiens, UniProt O15392)	ITC	peptide	pH 7.8, 25 °C		Kd	15.6 ± 0.6 µM
uvrD (Escherichia coli, UniProt P03018)	rpoA/rpoB/rpoC/rpoZ (Escherichia coli)	dynamic light scattering				molecule per partner	2
YKV[hTyr][NMehTyr]I (anabaenopeptin 915; lactam 2-C (inferred); also: Tyr1 joined to Lys2 via CO (ureido) bond; hTyr = N[C@@H](CCc1ccc(O)cc1)C(=O)O; NMehTyr = CN[C@@H](CCc1ccc(O)cc1)C(=O)O)	Carboxypeptidase A1 (CPA1, Bos taurus, UniProt P00730)	enzyme activity, inhibitor		pH 7.5, added: hippuryl-L-phenylalanine 1 mM		IC50	0.12 µg/mL
GVLEKTRHVNILLFMGYST (BRAF 503-521 R506E)	BRAF kinase domain with dimer interface	fluorescence titration	peptide			Kd	1.09 ± 0.29 µM
MENVKKATATTTWMVPTAQ (L3MBTL3 52-70 (Homo sapiens, UniProt Q96JM7-2); sequence looked up)	Rbpj 53-474 E260A (Mus musculus, UniProt P31266)	ITC	peptide	pH 6.5, 25 °C, NaCl 150 mM, one site model		Kd	3.8 µM
GVLRKDRHVNILLFMGYST (BRAF 503-521 T508D)	BRAF kinase domain with dimer interface	fluorescence titration	peptide			Kd	2.2 ± 0.83 µM
RmS-3, glycosylated (Rhipicephalus microplus)	PLAU (Homo sapiens, UniProt P00749)	chromogenic substrate hydrolysis, inhibitor		1 µM		protease inhibition	< 20%
MoaA peptide (Staphylococcus aureus)	moaA D206A/G340A (Staphylococcus aureus, UniProt P69848)	MoaA/MoaC coupled assay		200 µM	reference: 8-mer peptide, higher = more activity	restored activity	> 5 fold
GVLRKTRHVNILIFMGYST (BRAF 503-521 L515I)	BRAF kinase domain with dimer interface	fluorescence titration	peptide			Kd	4.1 ± 1.1 µM
CGNQL[pY]NELNLGRREE (CD247 residues 69-82; phosphotyrosine; pY = N[C@@H](Cc1ccc(OP(=O)(O)O)cc1)C(=O)O)	ZAP70 1-606 (Homo sapiens, UniProt P43403)	competition with labelled peptide, fluorescence polarisation	peptide			Ki	125 µM
RmS-17, glycosylated (Rhipicephalus microplus)	F11 factor XIa (Homo sapiens)	chromogenic substrate hydrolysis, inhibitor		1 µM		protease inhibition	98%
LLKTRHVNILLFMG (BRAF 505-518 R506L)	BRAF kinase domain with dimer interface	fluorescence titration	peptide			Kd	0.55 ± 0.105 µM
RmS-6, glycosylated (Rhipicephalus microplus)	trypsin (Bos taurus)	chromogenic substrate hydrolysis, inhibitor		1 µM		protease inhibition	73.5%
GVLRKTRHVNIALFMGYST (BRAF 503-521 L514A)	BRAF kinase domain with dimer interface	fluorescence titration	peptide			Kd	9.8 ± 1.6 µM
RUNX3 deletion of PPPY motif	CagA (Helicobacter pylori, UniProt P80200)	cycloheximide chase	COS-7	co-expressed with CagA		half-life	> 4 h
CNCKAPETALCARRCQQH-NH2 (Apamin; disulfide 1-11, 3-15; sequence looked up)	E3 ubiquitin-protein ligase Mdm2, residues 25-109 (MDM2, Homo sapiens, UniProt Q00987)	SPR competition	peptide, synthetic MDM2 (25-109)	added: immobilized p53 (15-29)		Kd	no binding

Repeated from above:
Molecule	target or system	assay	system	conditions	how to read	measurement	result
MFLDHILNKFWILHYAGSGSSG (SPAM peptide del2-3; peptide-RNA fusion)	CD274 ectodomain (Homo sapiens)	radioligand binding	peptide		reference: full-length SPAM, higher = more binding	relative binding	< 25%
GVLRKTRHVNIALFMGYST (BRAF 503-521 L514A)	BRAF kinase domain with dimer interface	fluorescence titration	peptide			Kd	9.8 ± 1.6 µM
